Results gathered from unrelated publications.
Compare with care: the assays were run in different laboratories. Numbers after ± are the reported error.
SLCO1B1: Solute carrier organic anion transporter family member 1B1 (SLCO1B1, Homo sapiens, UniProt Q9Y6L6)
Sequence of UniProt Q9Y6L6 (whole entry, looked up): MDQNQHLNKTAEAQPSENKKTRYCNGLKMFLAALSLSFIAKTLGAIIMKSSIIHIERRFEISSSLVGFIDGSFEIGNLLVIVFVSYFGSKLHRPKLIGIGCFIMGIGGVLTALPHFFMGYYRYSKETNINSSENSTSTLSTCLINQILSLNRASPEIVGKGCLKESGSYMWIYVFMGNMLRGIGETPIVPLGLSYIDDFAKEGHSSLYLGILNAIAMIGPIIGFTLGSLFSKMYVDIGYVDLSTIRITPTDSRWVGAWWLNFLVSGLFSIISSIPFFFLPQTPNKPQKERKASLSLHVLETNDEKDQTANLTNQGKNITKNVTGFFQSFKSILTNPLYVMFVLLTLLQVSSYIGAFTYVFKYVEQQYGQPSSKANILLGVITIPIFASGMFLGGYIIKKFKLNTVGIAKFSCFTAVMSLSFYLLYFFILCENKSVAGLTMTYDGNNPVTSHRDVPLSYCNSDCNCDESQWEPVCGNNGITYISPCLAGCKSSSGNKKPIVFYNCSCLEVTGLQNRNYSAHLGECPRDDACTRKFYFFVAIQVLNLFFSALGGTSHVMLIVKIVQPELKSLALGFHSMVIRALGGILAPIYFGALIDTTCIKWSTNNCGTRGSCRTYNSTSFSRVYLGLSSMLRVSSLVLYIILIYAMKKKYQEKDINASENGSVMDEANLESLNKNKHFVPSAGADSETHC
CYP2E1: Cytochrome P450 2E1 (CYP2E1, Homo sapiens, UniProt P05181)
Sequence of UniProt P05181 (whole entry, looked up): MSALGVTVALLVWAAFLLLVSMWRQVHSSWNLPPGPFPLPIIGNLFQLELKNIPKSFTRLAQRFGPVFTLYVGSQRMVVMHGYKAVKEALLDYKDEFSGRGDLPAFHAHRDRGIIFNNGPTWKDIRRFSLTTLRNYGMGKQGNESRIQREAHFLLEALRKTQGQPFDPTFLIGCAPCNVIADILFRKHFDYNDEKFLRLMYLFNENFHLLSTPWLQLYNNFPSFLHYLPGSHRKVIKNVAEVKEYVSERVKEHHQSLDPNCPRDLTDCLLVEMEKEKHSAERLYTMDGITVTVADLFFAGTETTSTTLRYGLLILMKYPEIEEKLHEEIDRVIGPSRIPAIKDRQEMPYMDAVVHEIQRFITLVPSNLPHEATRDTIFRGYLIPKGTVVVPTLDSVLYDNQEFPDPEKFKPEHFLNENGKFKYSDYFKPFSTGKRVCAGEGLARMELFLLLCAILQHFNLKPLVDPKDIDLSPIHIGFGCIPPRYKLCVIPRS
ABCB1: ATP-dependent translocase ABCB1 (ABCB1, Homo sapiens, UniProt P08183)
Sequence of UniProt P08183 (whole entry, looked up): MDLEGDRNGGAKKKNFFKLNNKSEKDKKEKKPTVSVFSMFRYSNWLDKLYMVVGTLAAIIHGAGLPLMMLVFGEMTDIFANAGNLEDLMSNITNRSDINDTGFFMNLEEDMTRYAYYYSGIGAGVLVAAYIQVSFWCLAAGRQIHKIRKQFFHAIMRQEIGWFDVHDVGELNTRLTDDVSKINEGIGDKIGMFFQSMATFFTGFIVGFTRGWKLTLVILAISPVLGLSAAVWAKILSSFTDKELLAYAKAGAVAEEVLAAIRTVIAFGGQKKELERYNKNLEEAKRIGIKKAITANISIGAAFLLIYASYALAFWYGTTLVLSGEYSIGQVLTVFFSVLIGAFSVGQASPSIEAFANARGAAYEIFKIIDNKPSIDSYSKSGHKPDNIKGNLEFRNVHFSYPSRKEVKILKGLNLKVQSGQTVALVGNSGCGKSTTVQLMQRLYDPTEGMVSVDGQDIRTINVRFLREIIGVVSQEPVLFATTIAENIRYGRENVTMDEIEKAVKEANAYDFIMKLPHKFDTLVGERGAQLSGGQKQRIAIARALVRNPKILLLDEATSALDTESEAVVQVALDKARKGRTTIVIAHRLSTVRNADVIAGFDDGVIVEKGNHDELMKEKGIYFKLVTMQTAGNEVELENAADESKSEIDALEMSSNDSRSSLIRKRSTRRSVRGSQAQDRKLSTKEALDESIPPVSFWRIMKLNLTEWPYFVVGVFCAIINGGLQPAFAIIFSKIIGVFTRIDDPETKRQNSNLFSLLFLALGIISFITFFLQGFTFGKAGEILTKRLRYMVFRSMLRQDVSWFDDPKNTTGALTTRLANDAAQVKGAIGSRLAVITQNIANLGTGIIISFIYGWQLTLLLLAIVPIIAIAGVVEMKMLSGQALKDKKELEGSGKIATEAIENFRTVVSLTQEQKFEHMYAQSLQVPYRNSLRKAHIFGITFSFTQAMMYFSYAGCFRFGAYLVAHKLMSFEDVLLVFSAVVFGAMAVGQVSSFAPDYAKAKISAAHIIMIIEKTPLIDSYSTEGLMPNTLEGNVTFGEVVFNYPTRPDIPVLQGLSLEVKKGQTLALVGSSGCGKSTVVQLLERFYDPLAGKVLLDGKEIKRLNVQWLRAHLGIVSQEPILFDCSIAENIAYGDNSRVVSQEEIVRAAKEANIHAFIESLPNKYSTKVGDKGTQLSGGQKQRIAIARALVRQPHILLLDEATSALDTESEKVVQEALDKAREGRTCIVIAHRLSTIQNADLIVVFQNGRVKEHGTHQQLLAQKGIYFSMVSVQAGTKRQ
Broad substrate specificity ATP-binding cassette transporter ABCG2: Broad substrate specificity ATP-binding cassette transporter ABCG2 (Mus musculus, UniProt Q7TMS5)
Sequence of UniProt Q7TMS5 (whole entry, looked up): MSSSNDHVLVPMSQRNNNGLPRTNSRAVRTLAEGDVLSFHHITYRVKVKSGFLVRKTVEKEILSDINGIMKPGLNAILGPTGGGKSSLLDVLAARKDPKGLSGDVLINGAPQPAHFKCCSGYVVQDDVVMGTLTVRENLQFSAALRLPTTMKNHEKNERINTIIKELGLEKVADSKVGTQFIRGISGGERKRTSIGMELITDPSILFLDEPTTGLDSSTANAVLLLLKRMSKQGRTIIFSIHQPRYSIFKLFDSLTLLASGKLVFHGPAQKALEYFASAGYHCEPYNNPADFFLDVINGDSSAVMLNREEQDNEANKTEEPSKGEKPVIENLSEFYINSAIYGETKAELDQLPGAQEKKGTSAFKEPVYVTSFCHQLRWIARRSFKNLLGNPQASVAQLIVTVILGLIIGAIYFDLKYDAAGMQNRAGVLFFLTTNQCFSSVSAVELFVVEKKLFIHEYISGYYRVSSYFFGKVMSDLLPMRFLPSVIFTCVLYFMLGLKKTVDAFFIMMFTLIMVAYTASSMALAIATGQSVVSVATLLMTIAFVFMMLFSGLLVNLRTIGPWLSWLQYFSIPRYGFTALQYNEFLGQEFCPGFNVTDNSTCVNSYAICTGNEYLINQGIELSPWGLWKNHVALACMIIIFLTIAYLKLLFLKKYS
Sequence of UniProt P08684 (whole entry, looked up): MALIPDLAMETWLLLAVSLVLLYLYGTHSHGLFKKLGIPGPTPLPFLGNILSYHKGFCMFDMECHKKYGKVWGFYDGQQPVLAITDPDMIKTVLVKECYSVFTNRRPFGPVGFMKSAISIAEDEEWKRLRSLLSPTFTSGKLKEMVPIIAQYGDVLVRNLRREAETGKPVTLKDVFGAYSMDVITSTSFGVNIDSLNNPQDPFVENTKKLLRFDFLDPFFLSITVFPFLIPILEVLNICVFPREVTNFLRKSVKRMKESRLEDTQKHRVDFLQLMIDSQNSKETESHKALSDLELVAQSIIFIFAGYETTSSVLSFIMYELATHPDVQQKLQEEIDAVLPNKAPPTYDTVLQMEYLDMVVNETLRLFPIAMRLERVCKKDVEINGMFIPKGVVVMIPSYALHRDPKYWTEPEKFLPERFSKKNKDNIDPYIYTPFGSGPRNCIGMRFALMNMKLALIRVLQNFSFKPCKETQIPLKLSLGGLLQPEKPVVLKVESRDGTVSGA
Sequence of UniProt P49888 (whole entry, looked up): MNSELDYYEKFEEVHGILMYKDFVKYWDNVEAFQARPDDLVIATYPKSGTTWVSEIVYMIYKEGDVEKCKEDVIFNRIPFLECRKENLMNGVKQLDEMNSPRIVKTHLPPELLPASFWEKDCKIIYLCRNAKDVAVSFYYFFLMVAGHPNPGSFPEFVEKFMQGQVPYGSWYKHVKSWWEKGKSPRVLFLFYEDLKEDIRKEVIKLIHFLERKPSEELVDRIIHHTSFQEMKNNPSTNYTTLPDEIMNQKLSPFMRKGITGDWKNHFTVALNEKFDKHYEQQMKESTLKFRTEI
Sequence of UniProt Q96JM7 (whole entry, looked up): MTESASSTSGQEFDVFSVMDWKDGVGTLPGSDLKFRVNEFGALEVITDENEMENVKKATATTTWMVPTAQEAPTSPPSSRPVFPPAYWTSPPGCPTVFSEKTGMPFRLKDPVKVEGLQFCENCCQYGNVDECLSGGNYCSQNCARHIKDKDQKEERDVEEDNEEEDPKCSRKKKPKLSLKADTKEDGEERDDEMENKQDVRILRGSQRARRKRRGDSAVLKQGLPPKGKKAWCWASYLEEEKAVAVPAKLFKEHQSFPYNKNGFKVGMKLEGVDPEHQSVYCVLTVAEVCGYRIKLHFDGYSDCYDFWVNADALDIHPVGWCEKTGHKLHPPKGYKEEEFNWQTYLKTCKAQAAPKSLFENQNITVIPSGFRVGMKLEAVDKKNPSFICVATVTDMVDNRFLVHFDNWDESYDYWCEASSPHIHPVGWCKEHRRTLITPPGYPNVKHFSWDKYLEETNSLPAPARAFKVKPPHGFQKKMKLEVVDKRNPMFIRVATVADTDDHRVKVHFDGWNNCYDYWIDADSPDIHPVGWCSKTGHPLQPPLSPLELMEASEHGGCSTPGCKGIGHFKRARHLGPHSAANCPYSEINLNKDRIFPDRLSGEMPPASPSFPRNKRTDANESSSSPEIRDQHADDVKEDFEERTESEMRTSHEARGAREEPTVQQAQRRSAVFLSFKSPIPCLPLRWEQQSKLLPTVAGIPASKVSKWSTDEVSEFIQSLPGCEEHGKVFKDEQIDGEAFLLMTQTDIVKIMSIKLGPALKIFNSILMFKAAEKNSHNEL

SMILES	target	test	system	conditions	scale	endpoint	value
O=C(c1ccc(C(=O)N2CCC(N3CCCC3)CC2)c(Nc2ccccc2)c1)N1CCC(N2CCCC2)CC1	Lethal(3)malignant brain tumor-like protein 3, MBT domains (Homo sapiens, UniProt Q96JM7)	FRAP	human cells	0.1 µM		FRAP recovery half-time	3.3 s
C=C[C@@H]1C[C@]1(NC(=O)[C@@H]1C[C@@H]2CN1C(=O)[C@H](C(C)(C)C)NC(=O)O[C@@H]1C[C@H]1CCCCCc1nc3ccc(OC)cc3nc1O2)C(=O)NS(=O)(=O)C1CC1	SLCO1B1	uptake, substrate	HEK293 transfected	relative activity factor scaled	reference: mock cells	Vmax	8.34 pmol/min/mg protein
CCC(=O)NCC[C@@H]1CCc2cc(O)c3c(c21)CCO3	SULT1E1 (Homo sapiens, UniProt P49888)	substrate, sulfation, purified enzyme		10 µM, 10 min, pH 7.0, 37 °C		specific activity	0.56 ± 0.02 nmol/min/mg
CC(C)=CCc1c(O)cc(O)c2c1O[C@H](c1ccc(O)cc1)CC2=O	human CYP2B6			10 µM, pH 7.4		inhibition	34.7 ± 1.7%
Cc1cc(O[C@@H]2CCOC2)cc(C(=O)Nc2nc(C)cs2)n1	CYP panel except CYP1A2 (human)	inhibitor				IC50	> 30 µM
CCc1oc2ccccc2c1C(=O)c1cc(I)c(OC)c(I)c1	CYP2E1	p-nitrophenol hydroxylation, inhibitor		with additive 100 µM		Ki	9.3 µM
CC[C@H]1[C@@H](O)[C@@H]2[C@H](CC[C@]3(C)[C@@H]([C@H](C)CCNC(=O)NS(=O)(=O)c4ccc(C(C)(C)C)cc4)CC[C@@H]23)[C@@]2(C)CC[C@@H](O)C[C@@H]12	ABCB1	substrate	human, plasma	dose not given, alone		AUC(0-t) mean	373 ng·h/mL
CCc1cc(/C(C)=N/OCc2ccc(C3CCCCC3)c(C(F)(F)F)c2)ccc1CN1CC(C(=O)O)C1	SLCO1B1	inhibitor	HEK293 transfected with SLCO1B1	16.8 µM, 3 min, together with: estradiol-17β-glucuronide 1 µM		maximal inhibition	80%
CC1(C)CCC2(CC1)N[C@@H](C(=O)N[C@@H]1CC[C@@H](C(N)=O)OC1)[C@H](c1ccnc(Cl)c1F)[C@]21C(=O)Nc2cc(Cl)ccc21	ABCB1		Caco-2 monolayers	100 µM, 120 min, no inhibitor		Papp B to A	5.79 ×10⁻⁶ cm/s
O=c1c(-c2ccc(O)cc2)coc2cc(O)cc(O)c12	Androgen receptor (AR, Homo sapiens, UniProt P10275, Q868H)	luciferase reporter gene, antagonist		concentration not given, heat-inactivated rat liver microsomes		antagonist activity	inactive
O=C1[C@H](CC[C@H](O)c2ccc(F)cc2)[C@@H](c2ccc(O)cc2)N1c1ccc(F)cc1	SLCO1B1	inhibitor, item: coproporphyrin I	MDCKII-SLCO1B1	up to 10 µM		CPI accumulation	no effect
c1ccc2ncccc2c1	CYP2E1	enzyme activity	human	100 µM, 20 min		inhibition	~50%
O=c1[nH]c(=O)c(Cc2cccc(C(F)(F)F)c2)c([C@H]2CC[C@H](c3ccccc3)CC2)[nH]1	SLCO1B1	uptake, inhibitor	HEK cells expressing SLCO1B1	together with: estradiol 17-beta-D-glucuronide		IC50	> 1 µM
O=C(O)[C@H]1O[C@@H](Oc2ccc([C@@H]3[C@@H](CC[C@H](O)c4ccc(F)cc4)C(=O)N3c3ccc(F)cc3)cc2)[C@H](O)[C@@H](O)[C@@H]1O	SLCO1B1	uptake, inhibitor	MDCKII-SLCO1B1	together with: 1 µM coproporphyrin I		lowest inhibitory concentration	≥ 0.1 µM
CN1C[C@@H]2C[C@H]1CN2c1cc2c(cc1F)c(=O)c(C(=O)O)cn2C1CC1	Broad substrate specificity ATP-binding cassette transporter ABCG2	substrate	MDCK-II transduced with mouse Abcg2	10 µM, 4 h, apical to basolateral		transport	5.82 ± 3.48%
CCCCC1=NC2(CCCC2)C(=O)N1Cc1ccc(-c2ccccc2S(=O)(=O)Nc2noc(C)c2C)c(COCC)c1	CYP3A4	enzyme induction, inducer	human			Hill coefficient	2.88
Cn1ncnc1[C@H]1c2n[nH]c(=O)c3cc(F)cc(c23)N[C@@H]1c1ccc(F)cc1	Broad substrate specificity ATP-binding cassette transporter ABCG2		MDCK-II Bcrp1-overexpressing	1 µM, together with: Ko143 200 nM	reference: vector control cells	intracellular accumulation	242 ± 46.9%
N#C[C@H](C[C@@H]1CCCNC1=O)NC(=O)[C@H](CC1CC1)NC(=O)c1cc2cccc(Cl)c2[nH]1	CYP2E1	NADPH metabolic stability		2 µM, pH 7.4, 100 pmol/mL enzyme		intrinsic clearance	< 0.054 µL/min/pmol
C[C@H]1CN(C2COC2)CCN1c1ccc(Nc2cc(-c3ccnc(N4CCn5c(cc6c5CC(C)(C)C6)C4=O)c3CO)cn(C)c2=O)nc1	human CYP2B6		human liver microsomes	1 µM, 60 min, pH 7.4, together with: PPP 20 µM, NADPH	reference: 0 min	remaining compound	54.4 ± 4.4%
CC(C)=CCc1c(O)cc2c(c1O)C(=O)C[C@@H](c1ccc(O)cc1)O2	human CYP2B6			1 µM, pH 7.4		inhibition	< 10%
Cc1cc(Nc2ncnc3ccc(NC4=NC(C)(CO)CO4)cc23)ccc1Oc1ccn2ncnc2c1 (stereo not drawn)	Cytochrome P450 3A4 (CYP3A4, Homo sapiens, UniProt P08684)		human, plasma	tucatinib, day 6, together with: itraconazole		AUC(0-inf) (arithmetic mean)	833 ng·h/mL

For quick reference, copied from above:
SMILES	target	test	system	conditions	scale	endpoint	value
CCCCC1=NC2(CCCC2)C(=O)N1Cc1ccc(-c2ccccc2S(=O)(=O)Nc2noc(C)c2C)c(COCC)c1	CYP3A4	enzyme induction, inducer	human			Hill coefficient	2.88
Cn1ncnc1[C@H]1c2n[nH]c(=O)c3cc(F)cc(c23)N[C@@H]1c1ccc(F)cc1	Broad substrate specificity ATP-binding cassette transporter ABCG2		MDCK-II Bcrp1-overexpressing	1 µM, together with: Ko143 200 nM	reference: vector control cells	intracellular accumulation	242 ± 46.9%
N#C[C@H](C[C@@H]1CCCNC1=O)NC(=O)[C@H](CC1CC1)NC(=O)c1cc2cccc(Cl)c2[nH]1	CYP2E1	NADPH metabolic stability		2 µM, pH 7.4, 100 pmol/mL enzyme		intrinsic clearance	< 0.054 µL/min/pmol
